{"data": "Experimental data pooled from the literature", "GRPR": "Gastrin-releasing peptide receptor (GRPR, Homo sapiens, UniProt P30550)", "Mc1r": "Melanocyte-stimulating hormone receptor (Mc1r, Mus musculus, UniProt Q01727)", "CHRM1": "Muscarinic acetylcholine receptor M1 (CHRM1, Homo sapiens, UniProt P11229)", "note": "Each line is one published result; not all experiments were run side by side. ± gives the spread as reported.", "chain of UniProt P30550 (whole entry, looked up)": "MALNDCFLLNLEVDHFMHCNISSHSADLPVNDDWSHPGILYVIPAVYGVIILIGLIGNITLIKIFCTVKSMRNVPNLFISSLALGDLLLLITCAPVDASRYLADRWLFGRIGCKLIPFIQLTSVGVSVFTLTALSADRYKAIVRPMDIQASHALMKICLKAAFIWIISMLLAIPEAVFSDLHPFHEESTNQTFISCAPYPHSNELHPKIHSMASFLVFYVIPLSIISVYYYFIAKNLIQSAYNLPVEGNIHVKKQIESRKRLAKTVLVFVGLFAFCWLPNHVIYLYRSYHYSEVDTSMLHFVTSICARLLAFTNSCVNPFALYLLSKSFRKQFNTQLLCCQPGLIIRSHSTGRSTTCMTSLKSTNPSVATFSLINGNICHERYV", "chain of UniProt P11229 (whole entry, looked up)": "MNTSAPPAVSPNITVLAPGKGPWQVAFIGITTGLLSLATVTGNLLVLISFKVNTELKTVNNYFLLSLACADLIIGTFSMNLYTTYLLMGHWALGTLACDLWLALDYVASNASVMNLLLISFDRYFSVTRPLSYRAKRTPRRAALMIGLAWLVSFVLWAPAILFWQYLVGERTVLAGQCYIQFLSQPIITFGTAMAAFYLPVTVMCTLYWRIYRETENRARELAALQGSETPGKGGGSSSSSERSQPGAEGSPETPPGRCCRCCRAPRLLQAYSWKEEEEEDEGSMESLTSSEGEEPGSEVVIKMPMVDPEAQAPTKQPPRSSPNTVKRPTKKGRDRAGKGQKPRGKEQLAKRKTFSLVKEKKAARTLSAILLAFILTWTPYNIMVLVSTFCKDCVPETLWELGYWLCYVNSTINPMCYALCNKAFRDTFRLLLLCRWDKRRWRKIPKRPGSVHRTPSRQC", "chain of UniProt Q01727 (whole entry, looked up)": "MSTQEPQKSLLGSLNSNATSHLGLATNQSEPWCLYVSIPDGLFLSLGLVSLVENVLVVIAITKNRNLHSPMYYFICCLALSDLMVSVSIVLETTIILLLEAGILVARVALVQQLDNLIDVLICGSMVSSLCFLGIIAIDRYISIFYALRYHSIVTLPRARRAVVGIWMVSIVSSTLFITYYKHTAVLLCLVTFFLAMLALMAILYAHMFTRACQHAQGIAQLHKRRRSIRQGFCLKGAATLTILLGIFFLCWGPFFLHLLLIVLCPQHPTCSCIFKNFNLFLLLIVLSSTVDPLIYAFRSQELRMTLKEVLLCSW", "chain of UniProt Q9UM07 (whole entry, looked up)": "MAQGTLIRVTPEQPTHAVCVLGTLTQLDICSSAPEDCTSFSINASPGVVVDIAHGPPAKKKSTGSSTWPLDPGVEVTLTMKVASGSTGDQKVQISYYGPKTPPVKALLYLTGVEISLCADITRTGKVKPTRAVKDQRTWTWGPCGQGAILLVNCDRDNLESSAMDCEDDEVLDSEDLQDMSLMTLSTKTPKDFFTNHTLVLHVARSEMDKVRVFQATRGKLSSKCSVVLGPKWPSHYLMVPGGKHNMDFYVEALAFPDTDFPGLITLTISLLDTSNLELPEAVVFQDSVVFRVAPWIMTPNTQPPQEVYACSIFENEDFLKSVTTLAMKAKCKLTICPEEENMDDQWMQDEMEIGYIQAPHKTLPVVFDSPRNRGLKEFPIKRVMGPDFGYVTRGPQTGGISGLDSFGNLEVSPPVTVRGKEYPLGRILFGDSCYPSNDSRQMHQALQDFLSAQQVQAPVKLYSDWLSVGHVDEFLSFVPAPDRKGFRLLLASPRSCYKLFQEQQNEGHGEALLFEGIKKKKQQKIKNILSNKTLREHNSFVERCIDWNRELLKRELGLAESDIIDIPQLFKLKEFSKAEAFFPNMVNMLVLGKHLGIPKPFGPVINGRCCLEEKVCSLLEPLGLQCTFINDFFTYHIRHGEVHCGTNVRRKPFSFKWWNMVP", "chain of UniProt Q92847 (whole entry, looked up)": "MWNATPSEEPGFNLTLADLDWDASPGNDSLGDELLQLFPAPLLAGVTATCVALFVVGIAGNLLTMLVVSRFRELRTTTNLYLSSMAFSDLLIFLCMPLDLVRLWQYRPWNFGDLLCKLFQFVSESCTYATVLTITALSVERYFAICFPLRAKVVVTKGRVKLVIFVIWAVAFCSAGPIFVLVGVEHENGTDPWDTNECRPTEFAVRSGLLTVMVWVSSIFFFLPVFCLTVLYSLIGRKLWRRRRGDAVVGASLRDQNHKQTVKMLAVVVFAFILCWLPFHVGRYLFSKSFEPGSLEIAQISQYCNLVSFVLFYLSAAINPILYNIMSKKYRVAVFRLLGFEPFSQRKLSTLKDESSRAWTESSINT", "chain of UniProt P03372 (whole entry, looked up)": "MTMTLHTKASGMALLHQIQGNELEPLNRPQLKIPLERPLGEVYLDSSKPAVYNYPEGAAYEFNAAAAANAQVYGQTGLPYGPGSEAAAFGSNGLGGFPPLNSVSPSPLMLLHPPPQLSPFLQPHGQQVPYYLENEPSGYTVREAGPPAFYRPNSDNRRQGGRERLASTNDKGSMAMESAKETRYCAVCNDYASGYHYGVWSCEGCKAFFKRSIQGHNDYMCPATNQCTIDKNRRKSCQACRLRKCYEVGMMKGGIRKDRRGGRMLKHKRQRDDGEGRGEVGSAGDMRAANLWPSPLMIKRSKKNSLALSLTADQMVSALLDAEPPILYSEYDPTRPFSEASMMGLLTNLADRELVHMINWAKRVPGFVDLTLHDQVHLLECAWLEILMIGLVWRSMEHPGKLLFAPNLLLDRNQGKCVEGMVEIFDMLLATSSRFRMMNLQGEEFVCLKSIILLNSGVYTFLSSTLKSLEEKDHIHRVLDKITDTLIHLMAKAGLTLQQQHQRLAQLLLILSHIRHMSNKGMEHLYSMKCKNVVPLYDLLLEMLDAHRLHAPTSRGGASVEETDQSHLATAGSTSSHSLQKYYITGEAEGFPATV", "chain of UniProt P17812 (whole entry, looked up)": "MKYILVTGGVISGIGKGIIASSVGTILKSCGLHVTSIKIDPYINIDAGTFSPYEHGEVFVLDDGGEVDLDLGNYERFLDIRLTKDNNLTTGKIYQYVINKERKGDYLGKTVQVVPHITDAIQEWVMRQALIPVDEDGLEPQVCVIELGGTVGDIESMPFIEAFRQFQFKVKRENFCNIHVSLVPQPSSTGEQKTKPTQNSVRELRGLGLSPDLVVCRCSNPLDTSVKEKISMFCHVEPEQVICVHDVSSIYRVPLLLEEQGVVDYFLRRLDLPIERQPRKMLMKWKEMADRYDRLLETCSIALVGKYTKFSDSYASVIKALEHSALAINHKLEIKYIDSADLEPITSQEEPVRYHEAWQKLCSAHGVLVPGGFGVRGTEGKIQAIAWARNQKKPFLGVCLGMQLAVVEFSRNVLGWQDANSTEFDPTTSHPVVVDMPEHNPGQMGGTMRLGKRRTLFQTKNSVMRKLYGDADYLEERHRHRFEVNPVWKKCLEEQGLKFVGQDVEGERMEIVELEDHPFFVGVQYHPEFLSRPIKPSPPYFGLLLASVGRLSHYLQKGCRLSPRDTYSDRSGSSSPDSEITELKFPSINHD", "chain of UniProt P20309 (whole entry, looked up)": "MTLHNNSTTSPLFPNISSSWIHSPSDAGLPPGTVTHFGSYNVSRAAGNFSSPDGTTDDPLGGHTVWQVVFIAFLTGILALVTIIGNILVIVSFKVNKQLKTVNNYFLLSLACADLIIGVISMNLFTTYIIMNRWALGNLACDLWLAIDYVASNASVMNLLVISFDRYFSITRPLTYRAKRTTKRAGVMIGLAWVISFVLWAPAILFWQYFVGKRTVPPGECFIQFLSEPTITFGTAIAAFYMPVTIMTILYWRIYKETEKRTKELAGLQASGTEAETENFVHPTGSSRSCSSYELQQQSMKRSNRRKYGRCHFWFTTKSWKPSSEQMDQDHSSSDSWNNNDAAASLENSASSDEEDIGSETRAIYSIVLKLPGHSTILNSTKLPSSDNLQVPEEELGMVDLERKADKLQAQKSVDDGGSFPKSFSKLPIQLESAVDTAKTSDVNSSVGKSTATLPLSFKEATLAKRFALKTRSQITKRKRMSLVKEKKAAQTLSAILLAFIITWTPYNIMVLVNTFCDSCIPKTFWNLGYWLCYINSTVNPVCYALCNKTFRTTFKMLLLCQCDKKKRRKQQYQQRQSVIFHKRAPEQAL", "chain of UniProt P04150 (whole entry, looked up)": "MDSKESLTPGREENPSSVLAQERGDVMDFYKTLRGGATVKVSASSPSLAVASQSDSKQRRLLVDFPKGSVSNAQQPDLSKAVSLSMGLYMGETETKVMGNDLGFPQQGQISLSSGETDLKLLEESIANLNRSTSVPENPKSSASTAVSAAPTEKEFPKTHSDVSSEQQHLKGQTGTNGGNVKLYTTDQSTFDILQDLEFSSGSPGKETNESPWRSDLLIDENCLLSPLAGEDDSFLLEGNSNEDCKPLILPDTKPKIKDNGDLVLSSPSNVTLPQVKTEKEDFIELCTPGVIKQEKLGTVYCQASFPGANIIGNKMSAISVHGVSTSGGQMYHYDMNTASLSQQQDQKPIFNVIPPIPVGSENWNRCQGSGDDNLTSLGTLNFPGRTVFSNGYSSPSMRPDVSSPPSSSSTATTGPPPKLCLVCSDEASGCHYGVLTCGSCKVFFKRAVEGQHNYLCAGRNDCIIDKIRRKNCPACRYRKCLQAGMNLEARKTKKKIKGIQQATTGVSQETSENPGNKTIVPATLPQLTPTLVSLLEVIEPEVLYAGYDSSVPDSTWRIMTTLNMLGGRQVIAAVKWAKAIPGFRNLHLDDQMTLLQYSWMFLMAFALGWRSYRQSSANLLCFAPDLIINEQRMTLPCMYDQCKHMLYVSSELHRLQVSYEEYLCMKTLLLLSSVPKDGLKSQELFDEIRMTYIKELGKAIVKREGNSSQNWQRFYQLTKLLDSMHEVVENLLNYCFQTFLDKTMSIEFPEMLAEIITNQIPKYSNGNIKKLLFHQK"}
{"Structure (SMILES)": "c1ccc(-c2csc(Nc3nc4cc5c(cc4s3)OCO5)n2)nc1", "target": "CTP synthase 1 (Homo sapiens, UniProt P17812)", "assay": "enzyme activity, inhibitor, ADP detection", "EC50 [nM]": 1200}
{"Structure (SMILES)": "N[C@H](C(=O)N1CCCC1)C1CCN(c2nccc3c(-c4ncc(Cl)cc4Cl)cccc23)CC1", "target": "PADI4 (Homo sapiens, UniProt Q9UM07)", "assay": "thermal stability", "EC50 [nM]": 1950}
{"Structure (SMILES)": "CSCC[C@H](NC(=O)[C@H](CC(C)C)NC(=O)[C@H](CO)NC(=O)CNC(=O)[C@@H](NC(=O)[C@H](C)NC(=O)[C@H](Cc1c[nH]c2ccccc12)NC(=O)[C@H](CC(C)C)NC(=O)[C@@H]1CCC(=O)N1)C(C)C)C(N)=O", "target": "GRPR", "assay": "inositol phosphate, agonist", "EC50 [nM]": 89.1}
{"Structure (SMILES)": "CC[C@H](C)[C@H](NC(=O)[C@H](CO)NC(=O)[C@H](Cc1ccc(O)cc1)NC(=O)[C@H](CC(=O)O)NC(=O)[C@H](CO)NC(=O)[C@@H](NC(=O)[C@H](Cc1ccccc1)NC(=O)[C@@H](NC(=O)CNC(=O)[C@H](CCC(=O)O)NC(=O)C(C)(C)NC(=O)[C@@H](N)Cc1ccc(O)cc1)[C@@H](C)O)[C@@H](C)CC)C(=O)N[C@@H](C)C(=O)N[C@@H](CCSC)C(=O)N[C@@H](CC(=O)O)C(=O)N[C@@H](CCCCN)C(=O)N[C@H](C(=O)N[C@@H](Cc1c[nH]cn1)C(=O)N[C@@H](CCC(N)=O)C(=O)N[C@@H](CCC(N)=O)C(=O)N[C@@H](CC(=O)O)C(=O)N[C@@H](Cc1ccccc1)C(=O)N[C@H](C(=O)N[C@@H](CC(N)=O)C(=O)N[C@@H](Cc1c[nH]c2ccccc12)C(=O)N[C@@H](CC(C)C)C(=O)N[C@@H](CC(C)C)C(=O)N[C@@H](C)C(=O)N[C@@H](CCC(N)=O)C(=O)N[C@@H](CCCCN)C(=O)NCC(=O)N[C@@H](CCCCN)C(=O)N[C@@H](CCCCN)C(=O)N[C@@H](CC(N)=O)C(=O)N[C@@H](CC(=O)O)C(=O)N[C@@H](Cc1c[nH]c2ccccc12)C(=O)N[C@@H](CCCCN)C(=O)N[C@@H](Cc1c[nH]cn1)C(=O)N[C@@H](CC(N)=O)C(=O)N[C@H](C(=O)N[C@H](C(=O)N[C@@H](CCC(N)=O)C(=O)O)[C@@H](C)O)[C@@H](C)CC)C(C)C)[C@@H](C)CC", "target": "Gastric inhibitory polypeptide receptor (Mus musculus, UniProt Q0P543)", "assay": "reporter gene, agonist, luciferase", "EC50 [nM]": 0.0117}
{"Structure (SMILES)": "CC(=O)N[C@@H](CCCNC(=N)N)C(=O)N[C@@H](CCCNC(=N)N)C(=O)N[C@H](C(=O)N1Cc2ccccc2C[C@H]1C(N)=O)[C@H](c1ccccc1)c1c[nH]c2ccccc12", "target": "Mc1r", "assay": "cAMP, agonist, AlphaScreen", "EC50 [nM]": "> 100000"}
{"Structure (SMILES)": "C=C(C)C(=O)Oc1ccc(C(C)(C)c2ccc(OC(=O)C(=C)C)cc2)cc1", "target": "Estrogen receptor (ESR1, Homo sapiens, UniProt P03372)", "assay": "reporter gene, agonist", "test system": "MVLN", "conditions": "50% of control maximum", "EC50 [nM]": 4800}
{"Structure (SMILES)": "C[C@]12C=CC(=O)C=C1CC[C@@H]1[C@@H]2[C@@H](O)C[C@@]2(C)[C@H]1C[C@H]1O[C@@H](C3CCCCC3)O[C@]12C(=O)CO", "target": "NR3C1 (Homo sapiens, UniProt P04150)", "conditions": "concentration not given", "EC50 [nM]": 4}
{"Structure (SMILES)": "Cn1ccc(-c2ccc(Cn3cc(C(=O)N[C@H]4CCCC[C@@H]4O)c4c(F)cc(F)cc43)cn2)n1", "target": "CHRM1", "assay": "calcium signal, agonist", "EC50 [nM]": 5900}
{"Structure (SMILES)": "CNc1ccc2c(n1)sc1c(N3CCNCC3)nc(NC)nc12", "target": "Beta-glucuronidase (uidA, Escherichia coli, UniProt P05804)", "EC50 [nM]": "8 ± 4"}
{"Structure (SMILES)": "CSCC[C@H](NC=O)C(=O)N[C@@H](Cc1ccccc1)C(=O)N[C@@H](CCC(=O)O)C(=O)N[C@@H](CC(=O)O)C(=O)N[C@@H](C)C(=O)N[C@H](C(=O)N[C@@H](C)C(=O)N[C@@H](Cc1c[nH]c2ccccc12)C(=O)N[C@@H](Cc1ccccc1)C(=O)O)C(C)C", "target": "FPR1 (Homo sapiens, UniProt P21462, N192K)", "assay": "receptor surface downregulation, agonist", "test system": "CHO cells", "conditions": "1 h, 37 °C", "EC50 [nM]": "1000 ± 80"}
{"Structure (SMILES)": "CC(C)C[C@H](NC(=O)[C@H](CC(C)C)NC(=O)[C@H](Cc1c[nH]cn1)NC(=O)CNC(=O)[C@@H](NC(=O)[C@H](C)NC(=O)[C@H](Cc1c[nH]c2ccccc12)NC(=O)[C@H](CCC(N)=O)NC(=O)[C@H](CC(N)=O)NC(=O)CNC(=O)[C@H](CC(C)C)NC(=O)[C@H](CCCNC(=N)N)NC(=O)[C@H](CCC(N)=O)NC(=O)[C@@H]1CCC(=O)N1)C(C)C)C(N)=O", "target": "GRPR", "assay": "inositol phosphate, agonist", "EC50 [nM]": 1.95}
{"Structure (SMILES)": "CCCCC/C=C\\C/C=C\\C/C=C\\C/C=C\\CCCC(=O)NCCc1ccc(O)c(O)c1", "target": "Trpv1 (Mus musculus, UniProt Q704Y3)", "assay": "ion current, agonist, whole-cell patch clamp", "test system": "HEK293", "conditions": "24 °C, wild type, +80 mV", "EC50 [nM]": "80 ± 50"}
{"Structure (SMILES)": "CC(C)[C@H]1CC[C@H](N2CC[C@@](C)(c3cccc(O)c3)[C@@H](C)C2)CC1", "target": "OPRM1 (Homo sapiens, UniProt P35372)", "assay": "GTPγS binding, agonist, radiometric", "EC50 [nM]": "> 10000"}
{"Structure (SMILES)": "CC(C)C[C@H](NC(=O)[C@H](CC(C)C)NC(=O)[C@@H](Cc1c[nH]c2ccccc12)NC(=O)[C@@H](NC(=O)[C@@H](Cc1csc2ccccc12)NC(=O)[C@@H](N)CCCCN)[C@@H](c1ccccc1)c1c[nH]c2ccccc12)C(N)=O", "target": "GHSR (Homo sapiens, UniProt Q92847)", "assay": "inositol phosphate, agonist, TR-FRET", "EC50 [nM]": "> 1000"}
{"Structure (SMILES)": "CC(=O)N[C@@H](CCCNC(=N)N)C(=O)N[C@@H](CCCNC(=N)N)C(=O)N[C@H](Cc1ccc(I)cc1)C(=O)N[C@@H](C(N)=O)[C@H](c1ccccc1)c1c[nH]c2ccccc12", "target": "Mc1r", "assay": "cAMP, agonist, AlphaScreen", "EC50 [nM]": 1400}
{"Structure (SMILES)": "C[N+](C)(CC#CCOC1=NOCC1)CCCCCCNC(=O)CCOCCOCCOCCOCCNC(=O)CCCC(=O)NCCCCC(C(=O)O)N(CC(=O)O)CC(=O)O (centres unmarked)", "target": "CHRM1", "assay": "calcium response, agonist", "test system": "primary rat cortical astrocytes", "EC50 [nM]": 170}
{"Structure (SMILES)": "CCN1CCN(C2=Nc3cc(Cl)ccc3Nc3ccccc32)CC1", "target": "CHRM3 (Homo sapiens, UniProt P20309)", "assay": "calcium signal, agonist", "EC50 [nM]": "> 30000"}
{"note": "Repeated from above:"}
{"Structure (SMILES)": "CCN1CCN(C2=Nc3cc(Cl)ccc3Nc3ccccc32)CC1", "target": "CHRM3 (Homo sapiens, UniProt P20309)", "assay": "calcium signal, agonist", "EC50 [nM]": "> 30000"}
{"Structure (SMILES)": "C=C(C)C(=O)Oc1ccc(C(C)(C)c2ccc(OC(=O)C(=C)C)cc2)cc1", "target": "Estrogen receptor (ESR1, Homo sapiens, UniProt P03372)", "assay": "reporter gene, agonist", "test system": "MVLN", "conditions": "50% of control maximum", "EC50 [nM]": 4800}
{"Structure (SMILES)": "CC(C)C[C@H](NC(=O)[C@H](CC(C)C)NC(=O)[C@@H](Cc1c[nH]c2ccccc12)NC(=O)[C@@H](NC(=O)[C@@H](Cc1csc2ccccc12)NC(=O)[C@@H](N)CCCCN)[C@@H](c1ccccc1)c1c[nH]c2ccccc12)C(N)=O", "target": "GHSR (Homo sapiens, UniProt Q92847)", "assay": "inositol phosphate, agonist, TR-FRET", "EC50 [nM]": "> 1000"}
